# Assay results of several laboratories.
# Parts stem from different laboratories: compare values within a part only. pIC50: −log10 of the molar value.
# UniProt P36544, sequence (whole entry, looked up): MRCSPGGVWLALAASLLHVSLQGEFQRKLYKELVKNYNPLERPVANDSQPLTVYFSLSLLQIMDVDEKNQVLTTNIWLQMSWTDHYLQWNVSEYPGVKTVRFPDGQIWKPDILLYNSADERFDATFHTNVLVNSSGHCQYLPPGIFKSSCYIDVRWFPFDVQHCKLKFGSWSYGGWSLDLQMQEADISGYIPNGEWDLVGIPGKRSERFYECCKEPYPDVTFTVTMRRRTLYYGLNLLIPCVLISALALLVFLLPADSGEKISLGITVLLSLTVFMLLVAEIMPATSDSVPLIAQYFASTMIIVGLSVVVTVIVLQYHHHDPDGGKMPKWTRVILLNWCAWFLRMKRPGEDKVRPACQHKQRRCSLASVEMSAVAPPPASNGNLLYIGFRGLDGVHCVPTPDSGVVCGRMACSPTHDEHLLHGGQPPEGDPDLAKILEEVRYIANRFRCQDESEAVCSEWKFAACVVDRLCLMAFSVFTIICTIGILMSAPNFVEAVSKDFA

# Series 1 — mode: antagonist; concentration: concentration not given
# Target: Nicotinic acetylcholine receptor alpha9/alpha10 (Rattus norvegicus, UniProt P43144+Q9JLB5)
# UniProt Q9JLB5, sequence (whole entry, looked up): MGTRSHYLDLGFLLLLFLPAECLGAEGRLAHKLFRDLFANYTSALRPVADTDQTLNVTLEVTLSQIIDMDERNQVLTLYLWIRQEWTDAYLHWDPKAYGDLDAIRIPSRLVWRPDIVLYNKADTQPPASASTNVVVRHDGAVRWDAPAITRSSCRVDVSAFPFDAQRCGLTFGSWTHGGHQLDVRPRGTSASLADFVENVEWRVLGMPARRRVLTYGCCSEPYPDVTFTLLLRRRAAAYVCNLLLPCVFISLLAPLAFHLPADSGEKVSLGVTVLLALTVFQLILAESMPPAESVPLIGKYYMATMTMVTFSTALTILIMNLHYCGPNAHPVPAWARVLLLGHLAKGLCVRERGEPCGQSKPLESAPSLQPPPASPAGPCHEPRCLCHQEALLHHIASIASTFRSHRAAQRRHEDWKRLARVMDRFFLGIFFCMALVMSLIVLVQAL
# UniProt P43144, sequence (whole entry, looked up): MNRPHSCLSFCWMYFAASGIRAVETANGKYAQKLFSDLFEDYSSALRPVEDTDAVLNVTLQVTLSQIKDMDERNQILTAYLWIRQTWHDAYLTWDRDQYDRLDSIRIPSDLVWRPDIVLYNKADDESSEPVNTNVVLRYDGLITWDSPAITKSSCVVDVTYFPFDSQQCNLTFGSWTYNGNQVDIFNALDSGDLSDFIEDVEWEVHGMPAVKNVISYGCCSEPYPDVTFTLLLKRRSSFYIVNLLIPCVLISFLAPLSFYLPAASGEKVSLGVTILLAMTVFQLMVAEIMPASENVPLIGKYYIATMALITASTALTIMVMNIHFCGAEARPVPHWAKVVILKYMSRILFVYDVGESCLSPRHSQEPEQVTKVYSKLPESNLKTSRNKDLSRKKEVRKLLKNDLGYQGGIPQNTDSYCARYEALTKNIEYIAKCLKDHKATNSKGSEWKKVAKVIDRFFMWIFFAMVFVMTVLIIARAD
Compound,pIC50
N=C(N)NCCC[C@H](NC(=O)[C@@H]1CSSC[C@@H]2NC(=O)[C@@H](NC(=O)CN)CSSC[C@H](NC(=O)[C@H](CCCNC(=N)N)NC(=O)[C@@H]3CCCN3C(=O)[C@H](CC(=O)O)NC(=O)[C@H](CO)NC2=O)C(=O)N[C@@H](CCCNC(=N)N)C(=O)N[C@@H](Cc2ccc(O)cc2)C(=O)N[C@@H](CCCCN)C(=O)N1)C(=O)O,8.80
N=C(N)NCCC[C@H](NC(=O)[C@@H]1CSSC[C@@H]2NC(=O)[C@@H](NC(=O)CN)CSSC[C@H](NC(=O)[C@H](CCCNC(=N)N)NC(=O)[C@@H]3CCCN3C(=O)[C@H](CC(=O)O)NC(=O)[C@H](CO)NC2=O)C(=O)N[C@@H](CCCCN)C(=O)N[C@@H](Cc2ccc(O)cc2)C(=O)N[C@@H](CCCNC(=N)N)C(=O)N1)C(=O)O,< 6.00
N=C(N)NCCC[C@@H]1NC(=O)[C@H](Cc2ccc(O)cc2)NC(=O)[C@H](CCCNC(=N)N)NC(=O)[C@@H]2CSSC[C@H](NC(=O)CN)C(=O)N[C@@H](CSSC[C@@H](C(=O)N[C@@H](CCCNC(N)=O)C(=O)O)NC1=O)C(=O)N[C@@H](CO)C(=O)N[C@@H](CC(=O)O)C(=O)N1CCC[C@H]1C(=O)N[C@@H](CCCNC(=N)N)C(=O)N2,8.48

# Single results of other studies
SMILES,target,test,setting,quantity,value
CC(=O)N[C@@H](CC(=O)O)C(=O)N[C@@H](CCC(=O)O)C(=O)N[C@@H](Cc1ccc(OP(=O)(O)O)cc1)C(=O)N[C@@H](CC(=O)O)C(=O)N[C@@H](CC(=O)O)C(=O)N1CCC[C@H]1C(=O)N[C@@H](Cc1ccccc1)C(N)=O,"Secreted effector protein, N-terminal domain (Yersinia pestis, UniProt O68720)","binding, ITC",,ΔH,-16.5 kcal/mol
CC[C@H](C)[C@@H]1NC(=O)[C@@H]2CCCN2C(=O)[C@H](CO)NC(=O)[C@H](CCSC)NC(=O)[C@H](C)NC(=O)[C@H](C)NC(=O)[C@@H]2CSSC[C@H](NC(=O)CN)C(=O)N[C@@H](CSSC[C@@H](C(N)=O)NC1=O)C(=O)N[C@@H](CO)C(=O)N[C@@H](Cc1cnc[nH]1)C(=O)N1CCC[C@H]1C(=O)N[C@@H](C(C)C)C(=O)N2,"Nicotinic acetylcholine receptor alpha9/alpha10 (Rattus norvegicus, UniProt P43144+Q9JLB5)",antagonist,,pIC50,< 5.00
CC[C@H](C)[C@@H]1NC(=O)[C@H](CCC(=O)O)NC(=O)[C@@H]2CCCN2C(=O)[C@H](Cc2cnc[nH]2)NC(=O)[C@H](CC(=O)O)NC(=O)[C@H](C(C)C)NC(=O)[C@H](CC(N)=O)NC(=O)[C@@H]2CSSC[C@H](NC(=O)CN)C(=O)N[C@@H](CSSC[C@@H](C(N)=O)NC1=O)C(=O)N[C@@H](CO)C(=O)N[C@@H](Cc1cnc[nH]1)C(=O)N1CCC[C@H]1C(=O)N[C@@H](C)C(=O)N2,"CHRNA7 (Homo sapiens, UniProt P36544)",,cell-based,pIC50,< 5.00

# A few entries again (single results of other studies):
SMILES,target,test,setting,quantity,value
CC(=O)N[C@@H](CC(=O)O)C(=O)N[C@@H](CCC(=O)O)C(=O)N[C@@H](Cc1ccc(OP(=O)(O)O)cc1)C(=O)N[C@@H](CC(=O)O)C(=O)N[C@@H](CC(=O)O)C(=O)N1CCC[C@H]1C(=O)N[C@@H](Cc1ccccc1)C(N)=O,"Secreted effector protein, N-terminal domain (Yersinia pestis, UniProt O68720)","binding, ITC",,ΔH,-16.5 kcal/mol
